Assay results collected from several papers.
A part holds a random share of what one study measured.

Set 1
Target: Interferon regulatory factor 5, full length, phosphomimetic (IRF5, Homo sapiens, UniProt Q13568-2, residues 1-514, K96S/S451D/S453D/S456D/S462D)
Technique: protein-binding microarray
Molecule type: double-stranded DNA, one strand shown
Matrix: in vitro
Tested at: 250 nM
Notes: 60-bp whole probe
With: salmon DNA 0.4 mg/ml
Reference: random background probes
Direction: higher = stronger binding
Shared flanks, not repeated: GCCTAGCAC … GTCTTGATTCGCTTGACGCTGCTG
Sequence | log fluorescence
GGTACTCACCTCCAGGCTGAGTGCTAG | -0.492 z-score
TTAGGTATCCTACTGCTTTCGTGCTAG | 1.21 z-score
TTAGGTTTCAACTATCGGTTAGTGCTA | 7.29 z-score
TCTCCTTTCGGAATACCCTCGTGCTAG | 7.3 z-score
GACGAACTGAGTCCCGAGACGTGCTAG | -0.398 z-score
TTAGGTTTCCTACTGATTTAGTGCTAG | 0.519 z-score
GACTAACTGGGGTTTCGAGACGTGCTA | 1.22 z-score
CTGTGTTTCCTTGTACGTCGGTGCTAG | 0.565 z-score
TCAAACATCATTGTCATACTGTGCTAG | 0.213 z-score
GACGATTCCAGTTTCTAGACGTGCTAG | 1.27 z-score

Set 2
Target: RNA binding protein fox-1 homolog 2, RRM domain, GST-SBP tag (RBFOX2, Homo sapiens, UniProt O43251-10, residues 100-194)
Technique: RNA Bind-n-Seq
Molecule type: RNA
Matrix: in vitro
Tested at: 365 nM
Notes: natural RNA segment, single round, ends assumed
Reference: no-protein control
Direction: higher = stronger binding
Sequence | RBNS enrichment (R)
GGGAGUUCUACAGUCCGACGAUCUUGGAUAAAUAGGAUUCAGAAAGCUAACAGUUUUCAUUCUGAAGGAGCAGAAACAUAAUCAAUCCCUCCCUGAGAUAAAAUGUGGGCAUGCACAUUGCUUUGGAGUCAGUUGGAAUUCUCGGGUGCCAA | 1.15
GGGAGUUCUACAGUCCGACGAUCAAAAGUGAAAAUACCAUGACACUGAAAAGAUGAUGCUAUCAGAUGCUGUUUAGAAAGCAUUUAUCUUGCAUUUCUUUAUUCUUUCUAAUUAUCUAAAAUUCAAUAAAAUUUGGAAUUCUCGGGUGCCAA | 0.798
GGGAGUUCUACAGUCCGACGAUCGCAGGUAAACUGUAUAGGUAUAGAGUCCUCCAGUGCUCUGAAGAGCCCUGCCUCUAUGCACGCCCCCGGCAAAGGGCUUGUCAGUAGGUCCCCCUCAACUCCAUACUCAAUGGAAUUCUCGGGUGCCAA | 0.671
GGGAGUUCUACAGUCCGACGAUCUAAUCCCAGGAACCACUAGCAGUAGUGGGGCGCCGCCAAUCUAACAUGAGCACAGGUGCUUCAUGACAAACAUUACUAGCAUGUUCAACUGCACCAUGUUCUGGCACUGUUGGAAUUCUCGGGUGCCAA | 0.43

Set 3
Target: Histone acetyltransferase KAT6A, both winged helices, GST fusion (KAT6A, Homo sapiens, UniProt Q92794, residues 1-181)
Technique: protein binding microarray
Molecule type: double-stranded DNA, one strand shown
Matrix: in vitro
Tested at: not given
Notes: 8-mer, flanks averaged, mean of 2 arrays, mostly near background
Reference: not given
Direction: higher = stronger binding
Construct (chain): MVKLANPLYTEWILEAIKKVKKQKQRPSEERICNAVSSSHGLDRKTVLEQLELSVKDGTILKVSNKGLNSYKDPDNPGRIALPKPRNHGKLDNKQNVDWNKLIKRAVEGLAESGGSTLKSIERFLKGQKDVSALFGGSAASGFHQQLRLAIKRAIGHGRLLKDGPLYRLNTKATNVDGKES
Sequence | E-score
CATGCAGC | 0.0837
CCGTAACG | 0.288
ACCTTTAA | -0.0778
TCGACGCA | 0.13
ACATATTG | -0.202
CCAGTCGC | 0.00105
CGTGGAGC | 0.0871
ATTGCGTA | 0.0673
CGTCTAAC | 0.153
AATTGCAT | -0.105

Set 4
Target: Max-binding protein MNT, bHLH-zipper, MAX partner unstated (MNT, Homo sapiens, UniProt Q99583, residues 220-300)
Technique: protein-binding microarray
Molecule type: double-stranded DNA, one strand shown
Matrix: in vitro
Tested at: not given
Notes: k-mer, scored over probes, only values ≥0.25
Direction: higher = stronger binding
Target sequence (chain): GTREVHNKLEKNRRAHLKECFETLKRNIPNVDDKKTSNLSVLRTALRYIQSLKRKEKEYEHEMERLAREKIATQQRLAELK
Sequence | E-score
GTCACGCA | 0.351
ACGCGTGA | 0.424
CGTGCGAC | 0.294
CATGCCGC | 0.384

Other studies, line by line
Molecule | target | assay | system | setting | how to read | quantity | value
PhoQ, residues 284 288 289 292 302 303 TTCLQL | PhoP, residues 12 14 15 18 19 LQHIR (Escherichia coli, UniProt P23836) | Sort-seq, refers to: YFP reporter | E. coli | PhoQ-PhoP variant library, with: 10 µM Mg2+ | reference: high Mg2+ state, higher = stronger signaling | fold induction | 2.56

For quick reference, copied from above (set 1):
Sequence | log fluorescence
TCAAACATCATTGTCATACTGTGCTAG | 0.213 z-score
GACGAACTGAGTCCCGAGACGTGCTAG | -0.398 z-score
CTGTGTTTCCTTGTACGTCGGTGCTAG | 0.565 z-score
GGTACTCACCTCCAGGCTGAGTGCTAG | -0.492 z-score
